Measured values from different studies.
Each line is one published result; not all experiments were run side by side.
Target: Myotonin-protein kinase (DMPK, Homo sapiens, UniProt Q09013)

For `CNC(=O)C1CCN(c2cc(C)c(F)cc2NC(=O)c2ccc(-c3cc(O)ccc3C)c(C)c2)CC1`, the remaining binding was 100% (binding, competition with immobilised ligand; 1 µM).
`CNC1C[S+]2CC[S+]3CC[S+](C1)[Ru-4]321([N]=C=S)[n]2c3ccc(OC)cc3c3c4c(c5cc(F)c[n+]1c5c32)C(=O)NC4=O` (stereo not shown) has a remaining binding of 99% (KinomeScan; 0.1 µM; reference: untreated).
`NC(=O)[C@@H](O)C[C@H]1CCc2sc3ncnc(O[C@H]4CC[C@H](N5CCOCC5)CC4)c3c21` gave an inhibition of 3% (enzyme activity, inhibitor; 10 µM).
`CN1CCN(Cc2ccc(-c3ccc(CO[C@H]4CCC[C@@H]4NC(=O)c4cc(-c5cnn(C)c5)cnc4N)cc3)cc2)CC1` has an inhibition of 6% (enzyme activity, inhibitor; 0.1 µM).
For `COc1ccc(C(=O)/C=C/c2ccccc2-c2c[nH]c3ccc(C#N)cc23)c(O)c1`, the inhibition was -10% (enzyme activity, inhibitor; 20 µM).
`C=CC(=O)N1CCc2ccc(-n3c(=O)ccc4cnc5ccc(-c6cnn(C)c6)cc5c43)cc21` gave a remaining binding of 95% (KINOMEscan; 1 µM; reference: DMSO control).
`C=CC(=O)N1Cc2nc(-c3cc(-c4cc(Cl)cnc4Cl)c(F)cc3F)n(-c3ccncn3)c2C1` has an inhibition of -1.4% (cell-free assay, inhibitor; 1 µM).
For `CNC(=O)C[C@H](Cc1ccc(C#N)cc1)NC(=O)c1cc(-c2ccc(CN[C@H](C)c3ccc(C)cc3)o2)ccc1Cl`, “activity vs control” read 104% (enzyme activity, inhibitor; 1 µM).
`CCN1CCN(Cc2ccc(C(=O)Nc3ccc(C)c(NCc4cnc5[nH]ccc5c4OC)c3)cc2C(F)(F)F)CC1` has a remaining binding of 96% (binding, competition with immobilised ligand; 1 µM).
`Nc1ncc2c(n1)-c1c([nH]c3ccc(C4=CCOCC4)cc13)CCC2` gave a remaining binding of 100% (binding, competition with immobilised ligand; 1 µM).
`Cc1nc2c(F)cc(-c3nc(Nc4ccc(CNC(=O)CCCCCCC(=O)NO)cc4)ncc3F)cc2n1C(C)C` gave an inhibition of 23% (enzyme activity, inhibitor; 1 µM).
`CC(C)=CC1OC(C)(C)C2C=C3C(=O)C(Cl)=CC(O)C3C3C(O)C4OC4C(=O)C132` (stereo not shown) has a remaining binding of 90% (cell-free assay, competition with immobilised ligand; 10 µM).
With `COc1cc(Nc2nc(C)cc(-c3cnn4nc(OC)ccc34)n2)cc(C(F)(F)F)c1` the remaining activity was 100% (inhibitor; 1 µM; reference: control).

A few entries again:
`CN1CCN(Cc2ccc(-c3ccc(CO[C@H]4CCC[C@@H]4NC(=O)c4cc(-c5cnn(C)c5)cnc4N)cc3)cc2)CC1` has an inhibition of 6% (enzyme activity, inhibitor; 0.1 µM).
